# Measured values pooled from the literature.
# Each numbered part is a random draw from the data of one study; scales do not carry over between parts.

# Set 1
# Target: RNA binding protein fox-1 homolog 2, RRM domain, GST-SBP tag (RBFOX2, Homo sapiens, UniProt O43251-10, residues 100-194)
# Technique: RNA Bind-n-Seq
# Form: RNA
# Matrix: in vitro
# Concentration: 365 nM
# Setting: natural RNA segment, single round, ends assumed
# Baseline: no-protein control
# Reading: higher = stronger binding
# Shared flanks, not repeated: GGGAGUUCUACAGUCCGACGAUC … UGGAAUUCUCGGGUGCCAA
# Construct (chain): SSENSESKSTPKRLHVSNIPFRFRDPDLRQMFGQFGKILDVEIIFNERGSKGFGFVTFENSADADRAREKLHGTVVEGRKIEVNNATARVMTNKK
Sequence,RBNS enrichment (R)
CAAUCUGGCAUCCCCACGAUGCCUCUGGAGAGAUGGCCUUGAUUGCCCCUCAAAGCCACCUGAACCGUCGUCAACUUACCCAGCCUGUCUCCAUUAAACACCAGGAACCA,0.359
UCACCCCUCCUCUGUCUGCACCUCUAAACCCCAGAGCCCUGGAGGGGAGAGACUGGACUCUAGCCAGGCAGUCUUGUGCCGGCACGCACAGCUGCACGCACGCAUGCAAG,9.38
CCCCACCAUGUGCUCCCGUGCACUCCUCAGAUGGUCAGAGGGGUAACCCAAGUCCUUAGAGAAUUUGGGGACCAAUAGAAUAUGUGAUGUGUGAAUUUUCUUUAAAAAAC,0.388
CCUUUUCUUCCUUUGUCCCGUUGUCGAGGUUUUUUCAAAUAGCGUGUUGUUCAGUAUGCAAAUCAAUUAUUUUAAGAAUCGCUUUUGUAAAUAUCUUUGUGAAUAUUUUA,1.18
AGAAGACAGAAGGAAAGCUGAGAGCUGGCCCGACAUGGUCUGGGACACAGAGUUGGAGCUGGCACUGAAGAUCUCCAGGGACUUCAGAGACCAAUAAAAGCCCAUAGGGA,0.358
CAUUUUGUACAUUCAAUAGAGGAAAGACUAACAUAUGCACUUUAUCUCAAGAUCUUCCAGUGCAUAUACACUCACGUGGGAGAGCACUUCAUAUCCACCAAGCAGACAUA,0.308
AGUUGGCUUGGACAAGUUUAACUUUAUUUUUAAUGUGUUAAUUACUUGGAAUAAAUGCAUUAAUCUCUGUUUCCUUCUGGAUUUUUGUUUUGAAAUCACACACAUUUGAA,0.751
GUCUACACUGGCAUAGCACGAGCCAUGUAAGCUUCUUUUUUUUCUAUGCAAGAGUAUUGAUGUAUGUGCUGAAUCUUCACAGACUUGUCAAUACACAGGCAGUAUUCUAA,5.95
UUUCCAGAAAUUUGUGGCCUUUUAGGCGGGAGUUAGGCGACCAAACCAGUGAGAGCCCCAAUCCCUGCAGUUUUGUGGCUUCAAGUGUGGGUGGACAGUCCUAAUGGGGA,0.433
UGGACAGCAAAUUUUUGUCUUAAUAAAAUGUUUUUCGUAAUCAUGCAGGUCAAGUGUAGGGUUGUCAGAGAACAUGGCGCUCUUGGGUGCACCUGUUUGUUCUGCUAGGU,0.367
UCUGCCCUCUCUUUAAUUUUGCCUCUUGAGGGGUAGCAGAUGUGUCAGUGCAUUUUAUUACUUGCUGAAACAUUCAGGCUUACAUUUCUUAUUAGUUUAGUAUUUUAAAA,0.63
CAAAGGGGGUCACUGGCUUUACCUGGAGCCUGGCCAGCUAGGUAGCUGGACGUAUAUAAAGGGUCCUCGUGCUUGUUCUUUGCCAGUUCCCACUAGAAAAGGCGCUCCUG,3.04

# Set 2
# Target: Ras GTPase-activating protein-binding protein 1, full length (G3BP1, Homo sapiens, UniProt Q13283)
# Chain of UniProt Q13283 (whole entry, looked up): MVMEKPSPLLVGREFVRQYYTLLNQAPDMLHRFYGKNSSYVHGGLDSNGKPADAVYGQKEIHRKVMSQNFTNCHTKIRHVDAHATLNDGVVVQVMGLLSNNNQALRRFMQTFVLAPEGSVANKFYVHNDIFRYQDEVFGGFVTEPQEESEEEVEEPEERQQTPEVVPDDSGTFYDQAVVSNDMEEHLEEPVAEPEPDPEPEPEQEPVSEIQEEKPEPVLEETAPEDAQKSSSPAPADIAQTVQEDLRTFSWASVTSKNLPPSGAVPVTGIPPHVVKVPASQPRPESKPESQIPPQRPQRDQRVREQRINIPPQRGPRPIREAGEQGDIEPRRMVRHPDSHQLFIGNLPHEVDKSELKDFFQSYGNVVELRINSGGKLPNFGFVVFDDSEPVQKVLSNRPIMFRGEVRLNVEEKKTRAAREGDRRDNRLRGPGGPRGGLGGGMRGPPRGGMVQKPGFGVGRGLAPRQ
# Technique: RNA Bind-n-Seq
# Form: RNA
# Matrix: in vitro
# Concentration: 200 nM
# Setting: whole 134-nt RNA, ends assumed
# Together with: 150 mM LiCl
# Baseline: input library
# Reading: higher = stronger binding
# Each molecule: 7-deaza-guanosine replaces G
# Shared flanks, not repeated: GGGAGUUCUACAGUCCGACGAUC … UGGAAUUCUCGGGUGUCAAGG
Sequence,log2 enrichment
AAGUCCUGUGCUACACAUCGUAUGUACCGAAUCGGAAAAAGGUUUUUUUGGUUUGGAAAGUAUUAUGUUACGCCGUUCGGAUCUGCACUU,-3.3
AGUCCUGUGCUACACAUCGUAUGUACCGAAUCGGUUUGGUUUUUUUGGUUUUUUUGGAAAGUAUUAUGUUACGCCGUUCGGAUCUGCACU,-0.945
UGUGCUACACAUCGUAUGUACCGAAUCGGGGCCCCCCCGGGGCCCCCCCGGGGCCCCCCCGGAAAGUAUUAUGUUACGCCGUUCGGAUCU,-0.567
AGUCCUGUGCUACACAUCGUAUGUACCGAAUCGGGGAGGGGAAAAAGGGGUUUGGGGAAAGUAUUAUGUUACGCCGUUCGGAUCUGCACU,-0.66
CCUGUGCUACACAUCGUAUGUACCGAAUCAAACCCCCCCAAACCCCCCCAAAUUUUUAAAAAAGUAUUAUGUUACGCCGUUCGGAUCUGC,0.555
ACCAUGGAGGUGGGCAUCUUUGGGAAGUGGGGCAAGGGGGGGAUAGGGAGGGGGGUAACACUUUGGGAACAGGUGGUCCCAGGUCGUUUC,0.0302
CACAGACAACACGCACCCACACAGACACAGAGGGAAGGGGUUGGGAAAGGGACAGGGUGCACAGCAGGGCGGGGUAGGACCCCAGCCCCU,0.368
GUCCUGUGCUACACAUCGUAUGUACCGAAUCGGGGAAAAGGGAAAAGGGGAAAAGGGGAAAGUAUUAUGUUACGCCGUUCGGAUCUGCAC,0.356
CAAGUCCUGUGCUACACAUCGUAUGUACCGAAUCGGUUUGGAAAGGUUUUUUUGGAAAGUAUUAUGUUACGCCGUUCGGAUCUGCACUUC,-0.824
CCUCAAGUCCUGUGCUACACAUCGUAUGUACCGAAUCGGUGGGGUGGGGUGGAAAGUAUUAUGUUACGCCGUUCGGAUCUGCACUUCCAG,-0.713
UGAAGGCGCGGCCCUUCCCCGACGGCCUGGCCGAGGACAUCGAUAAAGGCGAGGUGUCCGCCCGUCAGGAGCUCAAGCAGCGGGCGCGCU,0.00216

# Set 3
# Target: Sal-like protein 4, full length isoform A (SALL4, Homo sapiens, UniProt Q9UJQ4, residues 1-1053)
# Chain of UniProt Q9UJQ4 (whole entry, looked up): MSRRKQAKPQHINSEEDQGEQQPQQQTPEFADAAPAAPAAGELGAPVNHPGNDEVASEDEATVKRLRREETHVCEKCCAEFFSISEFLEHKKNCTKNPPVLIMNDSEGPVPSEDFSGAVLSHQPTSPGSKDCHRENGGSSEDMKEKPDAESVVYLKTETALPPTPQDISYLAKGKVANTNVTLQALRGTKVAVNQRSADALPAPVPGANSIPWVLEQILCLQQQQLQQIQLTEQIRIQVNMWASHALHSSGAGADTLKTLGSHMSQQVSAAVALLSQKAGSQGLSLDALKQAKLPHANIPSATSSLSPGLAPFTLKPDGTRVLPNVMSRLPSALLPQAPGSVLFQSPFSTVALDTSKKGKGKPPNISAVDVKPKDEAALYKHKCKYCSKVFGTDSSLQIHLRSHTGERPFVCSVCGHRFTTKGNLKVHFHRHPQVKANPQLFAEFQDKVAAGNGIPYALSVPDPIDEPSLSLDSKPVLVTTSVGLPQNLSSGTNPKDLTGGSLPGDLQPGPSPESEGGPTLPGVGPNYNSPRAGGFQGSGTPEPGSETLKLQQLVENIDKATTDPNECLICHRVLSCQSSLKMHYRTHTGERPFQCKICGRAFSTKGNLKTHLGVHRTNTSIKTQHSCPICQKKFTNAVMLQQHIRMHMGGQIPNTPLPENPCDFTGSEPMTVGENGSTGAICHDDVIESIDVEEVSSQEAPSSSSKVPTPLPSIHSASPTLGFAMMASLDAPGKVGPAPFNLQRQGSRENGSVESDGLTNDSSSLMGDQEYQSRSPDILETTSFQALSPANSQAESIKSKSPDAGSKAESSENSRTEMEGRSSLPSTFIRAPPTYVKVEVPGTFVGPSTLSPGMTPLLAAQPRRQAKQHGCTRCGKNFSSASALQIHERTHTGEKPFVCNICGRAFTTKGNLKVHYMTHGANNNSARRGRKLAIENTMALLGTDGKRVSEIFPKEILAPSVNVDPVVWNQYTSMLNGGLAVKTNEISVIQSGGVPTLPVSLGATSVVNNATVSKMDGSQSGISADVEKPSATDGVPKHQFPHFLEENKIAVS
# Technique: universal PBM
# Form: double-stranded DNA, one strand shown
# Matrix: in vitro
# Concentration: 600 nM
# Setting: 8-mer, flanks averaged, mean of replicates
# Reading: higher = stronger binding
Sequence,E-score
ACCTAATG,-0.0389
CCCAGAGG,-0.347
GTGAGAAC,-0.0976
ATCAAGAC,-0.012
GTAAAAGA,0.0799
ACGCCTAT,-0.0384
CTGAGATC,-0.204
AAACTAGG,-0.037
GCAGCCCA,-0.196
CCGACCTA,-0.151
CTATCCAG,-0.03
ATGTCTAC,-0.0279
CAACTTCC,-0.155
GCCGCCTA,-0.317
ATCTATCG,0.109
CGTCCCTA,-0.0767
CACAATAC,0.0551
ACCTCCTC,-0.122
CCCGCGGA,-0.284
GCGGCTCC,-0.407
GGACGCCC,-0.316

# Set 4
# Target: Centromere-binding protein 1, full length, N-terminal tag (CBF1, Saccharomyces cerevisiae, UniProt P17106, residues 1-351)
# Chain of UniProt P17106 (whole entry, looked up): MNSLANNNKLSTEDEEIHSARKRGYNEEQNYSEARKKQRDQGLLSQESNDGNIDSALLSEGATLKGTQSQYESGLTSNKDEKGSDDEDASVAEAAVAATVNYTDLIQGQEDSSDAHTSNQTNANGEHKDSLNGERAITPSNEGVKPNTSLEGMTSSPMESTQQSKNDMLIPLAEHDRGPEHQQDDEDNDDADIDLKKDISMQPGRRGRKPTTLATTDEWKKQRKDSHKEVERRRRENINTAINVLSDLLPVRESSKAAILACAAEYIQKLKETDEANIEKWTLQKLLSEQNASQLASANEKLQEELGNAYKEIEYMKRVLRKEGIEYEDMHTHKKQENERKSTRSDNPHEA
# Technique: protein-binding microarray
# Form: double-stranded DNA, one strand shown
# Matrix: in vitro
# Concentration: 0.8 µM
# Setting: whole 60-bp probe, no competitor
# Reading: higher = stronger binding
# Shared flanks, not repeated: … GTCTTGATTCGCTTGACGCTGCTG
Sequence,fluorescence intensity [a.u.]
GAAATTTTTTTAAGCAACATCAGCTGCACTAGTTAG,584
GAAGTATCATAGTAAAACGTGTGTTGAATGAAGTAG,613
GAATTTTCACGTCGTCATGTGTTTCTTCAGCGCTAG,1100
GAAGTGCTACCCGCGCACGTGATTAAAAGGAAATAG,14400
GAATCACAGAACCTGGACGTGCCGCTGTTATTGTAG,510
CTAATTTCACTGATTCACGTTTTCTACTTTGTTTTC,613
CTAAGACCGAATGAACATGTGCCTTTGCATTACTTC,811
GAATAATCCTTTACATGTGAGACACTTTTCCGATAG,749
CTAATCTGTGCCCATGTGATCTGTACCTTTTTTTTC,2800
CTAAATATACAACCTGATGAGAAAGTAAGGTAATTC,549
CTAAAAGAGTAAGATCACCACGCACGTTTAGGGTTC,550
CCTAACTACTATAGTCATCTGATATAGCTTCGTACA,1000
CCTAACTACTATAGTCATGAAAAATAGCTTCGTACA,514
GAAGATATATTTTCTGATGTCCTAGGAATTGGATAG,504
GAACAGGGACTTCTGCCCACCACGTAGAAACGCTAG,533
CCTAACTACTATATCCACACGTTATAGCTTCGTACA,569
GAAGAGCGAAAGATGAACGTGTGCTTTCGCCTGTAG,561
CTATCATTGAAAATTCACGTGATCGCAATATTCTTC,15600
GAAATATATCATGCACACATCAGGTAGAAGATATAG,696
TGTACGAAGCTATTTCGTGTCATTATAGTAGTTAGG,507
CTACGCTGCCTTCCGTACGTCACAACGCATACATTC,552
CCTAACTACTATATCAACTGAACATAGCTTCGTACA,550
GAAAGAAAAAAAAATCACCTGACATATTTTTATTAG,5200
GAACTGAGGATTGTTTGTCAGGTGTCGCGGCCATAG,1130
GAACTTGACAATGTTCTCATGATAATGTAAGTATAG,546

# Repeated from above (set 3):
Sequence,E-score
CTGAGATC,-0.204
AAACTAGG,-0.037
GCAGCCCA,-0.196
CCGACCTA,-0.151
CTATCCAG,-0.03
ATGTCTAC,-0.0279
CAACTTCC,-0.155
GCCGCCTA,-0.317
ATCTATCG,0.109
CGTCCCTA,-0.0767
CACAATAC,0.0551
